# Assay results pooled from the literature.
# ± gives the spread as reported. No end group written: not given here.
# B1: bicyclic; chain AATCHCRRSCYSTEYSYGTCTVMGINHRFCCL (also: bicyclic or more (positions not given here))
Substance,tested on,assay,system,setting,how to read,quantity,result
Teicoplanin,,,QC solution,"6 months, -40 °C, high QC level",,recovery,102%
Polymyxin B,,"untargeted LC-MS metabolomics, measured: L-phenylalanine","Sprague-Dawley rat, right cerebral cortex","intracerebroventricular, 0.75 mg/kg, 1 h",relative to: NaCl control,log2 fold change,-9.9
TFFYGGSRGKRNNFKTEEY-OH,,in situ brain perfusion,"peptide, mouse, right brain hemisphere",5 min,relative to: input,brain uptake,0.035 ± 0.005%
B1,,sedimentation velocity AUC,10 mM sodium phosphate,"100 µM, pH 7.4, 20 °C",,"sedimentation coefficient S20,w",0.846 S
ALLQWVSQV,Jurkat T cells expressing 1G4 TCR,"NFAT-eGFP reporter, fluorescence microscopy",peptide,"concentration not given, HLA-A*02:01 NY-ESO system",,reporter activation,23.1%
LTSTVQLIMQ,"HLA class I histocompatibility antigen, A alpha chain, allele A*01:01 (Homo sapiens, UniProt P04439)",conformational ELISA,peptide,concentration not given,"relative to: positive control peptide, direction not given",binding score,1.1%
Rilpivirine docusate,,,aqueous buffer,"pH 6.8, below quantification limit",,equilibrium solubility,0.08 ± 0.01 µg/mL
QLMPFGSL,"HLA class I histocompatibility antigen, A alpha chain, allele A*02:01 (Homo sapiens, UniProt P04439)",conformational ELISA,peptide,concentration not given,"relative to: positive control peptide, direction not given",binding score,14.9%
GLGTWISQV,Jurkat T cells expressing 1G4 TCR,"NFAT-eGFP reporter, flow cytometry",peptide,"concentration not given, HLA-A*02:01 NY-ESO system",,reporter activation,12.2%
coproporphyrin I,,,"human, plasma",baseline day,,mean daily plasma concentration,0.833 ± 0.034 nM
CTOP,,RP-HPLC,HALO C18 column,"25 µM, acetic acid/methanol, 25 min gradient",,retention time,12.1 min
caspofungin,,,"adult ICU patients, mITT, serum","dose not given, day 4",,magnesium,0.7 mmol/L
ESLSLSLSLSLSLEGTVFTSWEEYLDWV,,AFM,"peptide, dried on mica from water",0.1 wt%,,nanofibre width,9.6 ± 1.2 nm
VEALLNLKALE,,LC-MS,"peptide, 100 mM Na2HPO4","pH 7.4, 37 °C",,cleavage half-life,692 days
monomethyl auristatin F hydroxypropylamide,,measured: sum of compound and MMAF,"Sprague Dawley rat, feces","intravenous, dose not given, 120 h, dosed as NaPi2b ADC, recovery-corrected",relative to: dose,excreted in feces,< 2%
equol sulfate,,,"human, cerebrospinal fluid","dose not given, mean",,CSF concentration,not detected
MTVCNASQRQAHAQATAVSL,H1650 lung adenocarcinoma/BAC,phage binding output/input,peptide,,relative to: control phage,selectivity ratio,1.4 ± 0.35
EKPIDSETKM,human MAGI1-2/6 PDZ construct (MBP fusion),automated holdup,"peptide, purified PDZ protein","concentration not given, unit not given","relative to: biotin control resin, higher = stronger binding",binding intensity,-0.0466
regorafenib N-β-glucuronide,,,"Oatp1b2 knockout mice, plasma","oral, 10 mg/kg regorafenib single dose",,Tmax,0.0875 ± 0.0342 days
GSGAGKETRV,human MAGI1-2/6 PDZ construct (MBP fusion),automated holdup,"peptide, purified PDZ protein","concentration not given, unit not given","relative to: biotin control resin, higher = stronger binding",binding intensity,0.246
"FNA / CGLSGLGVA-NH2 ([18F]FNA-labelled, C-amide)",,ex vivo gamma counting,"peptide, healthy mouse, spleen",60 min post injection,,tissue uptake,0.28 %ID/g

# Some of these lines once more:
Substance,tested on,assay,system,setting,how to read,quantity,result
Rilpivirine docusate,,,aqueous buffer,"pH 6.8, below quantification limit",,equilibrium solubility,0.08 ± 0.01 µg/mL
QLMPFGSL,"HLA class I histocompatibility antigen, A alpha chain, allele A*02:01 (Homo sapiens, UniProt P04439)",conformational ELISA,peptide,concentration not given,"relative to: positive control peptide, direction not given",binding score,14.9%
GLGTWISQV,Jurkat T cells expressing 1G4 TCR,"NFAT-eGFP reporter, flow cytometry",peptide,"concentration not given, HLA-A*02:01 NY-ESO system",,reporter activation,12.2%
